Measurements from different studies.
± marks the error that the study gave.
Technique: steady-state kinetics
B1: sacB Y421F (Priestia megaterium, UniProt D5DC07); chain KGNDSKDFNNSYGISHITRDNMVKIPQQQNSDQFKVPAFDESTIKNIASAKGKNASGNTIDLDVWDSWPLQNADGTVATYHGYQIVFALAGDPKDSNDTSVYLFYKKAGDKSIDSWKNAGRVFKDSDKFVPNDPHLKNQTQEWSGSGTLTKDGKVRLFYTDYSGKQYGKQTLTTAQVNMSQPNDNTLKVDGVEDYKSIFDGDGKIYQTVQQFIDEGGYDTGDNHTLRDPHYIEDNGHKYLVFEANTGTEDGYQGEDSLYNRAYYGGNNPFFQSEKKKLLEGSNKEKASLANGALGIIELNDDYTLKKVMKPLITSNTVTDEIERANIFKKDGKWYLFTDSRGSKMTIDGIGQDDVYMLGYVSNTLTGKYKPLNDTGLVLHMDLDPNDKTFTFSHFAVPQTKGDNVVITSYMTNRGFYEDNHSTFAPSFLVNIDGSKTSVVKDRVLEQGQLTVDED
B2: enzyme (Vitis vinifera, UniProt F6H697); chain MAVDPILSSPLGPAASEKDAKALQFIEEMTRNADSVQERVLAEILSRNGETEYLKRFKLEGSTVRETFKSKIPVIKYEDLQPEIQRIANGDRSAILSAHPISEFLTSSGTSAGERKLMPTIQEELDRRQMLYSLLMPVMNLYVPGLDKGKGLYFLFVKSETRTPGGLLARPVLTSYYKSEHFKTRPYDPYNVYTSPNEAILCADSFQSMYTQMLCGIYERKQVLRLGAVFASGLLRAIRFLQLNWHQLTHDIRTGTLSPKITDPSVRNCVAGVLKPDPELADLVAGECSKDNWEGIITRIWPNTKYLDVIVTGAMAQYIPTLDYYSGGLPLACTMYASSECYFGLNLNPMSKPSEVSYTIMPNMAYFEFLPHEHSSIPLSRDSPPRLVDLAHVEVGKEYELVITTYAGLYRYRVGDILRVTGFHNSAPQFHFVRRKNVLLSIDSDKTDEAELQKAVDNASKLLREVNTSVVEYTSFADTKTIPGHYVIYWELLVKDSANSPSDELLGQCCLAMEESLNSVYRQGRVADNSIGPLEIRVVKSGTFEELMDYAISRGASINQYKVPRCVNFTPIMELLDSRVVSSHFSPALPHWTPARRR
B3: protein Y93T (Thermus thermophilus, UniProt Q5SKR5); chain MSAPKPFVIGIAGGTASGKTTLAQALARTLGERVALLPMDHYYKDLGHLPLEERLRVNYDHPDAFDLALYLEHAQALLRGLPVEMPVYDFRATTRSPRRTPVRPAPVVILEGILVLYPKELRDLMDLKVFVDADADERFIRRLKRDVLERGRSLEGVVAQYLEQVKPMHLHFVEPTKRYADVIVPRGGQNPVALEMLAAKALARLARMGAA
B4: oxdC T165S (Bacillus subtilis, UniProt O34714); chain MKKQNDIPQPIRGDKGATVKIPRNIERDRQNPDMLVPPETDHGTVSNMKFSFSDTHNRLEKGGYAREVTVRELPISENLASVNMRLKPGAIRELHWHKEAEWAYMIYGSARVTIVDEKGRSFIDDVGEGDLWYFPSGLPHSIQALEEGAEFLLVFDDGSFSENSSFQLTDWLAHTPKEVIAANFGVTKEEISNLPGKEKYIFENQLPGSLKDDIVEGPNGEVPYPFTYRLLEQEPIESEGGKVYIADSTNFKVSKTIASALVTVEPGAMRELHWHPNTHEWQYYISGKARMTVFASDGHARTFNYQAGDVGYVPFAMGHYVENIGDEPLVFLEIFKDDHYADVSLNQWLAMLPETFVQAHLDLGKDFTDVLSKEKHPVVKKKCSK
B5: protein G96D (Streptomyces coelicolor, UniProt P16544); chain MATQDSEVALVTGATSGIGLEIARRLGKEGLRVFVCARGEEGLRTTLKELREAGVEADGRTCDVRSVPEIEALVAAVVERYGPVDVLVNNAGRPGDGATAELADELWLDVVETNLTGVFRVTKQVLKAGGMLERGTGRIVNIASTGGKQGVVHAAPYSASKHGVVGFTKALGLELARTGITVNAVCPGFVETPMAASVREHYSDIWEVSTEEAFDRITARVPIGRYVQPSEVAEMVAYLIGPGAAAVTAQALNVCGGLGNY
B6: protein (UniProt A0A4Y6I0S2); chain MTFEEKPMKFDGLDIEGVAFAPSVAALGSAKPLVLGGAGDRGLEINGNYIKFTAIGIYIEDGIIPHLSSKLSGKTVLELCEKDLLFEEVIYAPFEKLVRVVFIAPLTGIQYSEKVLERISVQALYTDIKEEHKQQFLEIFKGESFPPQSSAILSFSKEGLKVAFSKGDDVPAKAVGTIENARFADAVLGTIIWRDGVSPAAKVSLAERVSKYLQLGPSDGLASVPQSK
B7: enzyme A178R/D177A/M179H/P184R (Levilactobacillus brevis, UniProt Q03Q85); chain MKVTVVGCTHAGTFAIKQILAEHPDAEVTVYERNDVISFLSCGIALYLGGKVADPQGLFYSSPEELQKLGANVQMNHNVLAIDPDQKTVTVEDLTNHAQTTESYDKLVMTSGSWPIVPKIPGIDSDRVKLCKNWAHAQALIEDAKEAKRITVIGAGYIGAELAEAYSTTGHDVTLIARHARVMRKYFDADFTDVIEQDYRDHGVQLALGETVESFTDSATGLTIKTDKNSYETDLAILCIGFRPNTDLLKGKVDMAPNGAIITDDYMRSSNPDIFAAGDSAAVHYNPTHQNAYIPLATNAVRQGILVGKNLVKPTVKYMGTQSSSGLALYDRTIVSTGLTLAAAKQQGLNAEQVIVEDNYRPEFMPSTEPVLMSLVFDPDTHRILGGALMSKYDVSQSANTLSVCIQNENTIDDLAMVDMLFQPNFDRPFNYLNILAQAAQAKVAQSVNA
B8: hdhb (Clostridium sardiniense, UniProt G9FRD6); chain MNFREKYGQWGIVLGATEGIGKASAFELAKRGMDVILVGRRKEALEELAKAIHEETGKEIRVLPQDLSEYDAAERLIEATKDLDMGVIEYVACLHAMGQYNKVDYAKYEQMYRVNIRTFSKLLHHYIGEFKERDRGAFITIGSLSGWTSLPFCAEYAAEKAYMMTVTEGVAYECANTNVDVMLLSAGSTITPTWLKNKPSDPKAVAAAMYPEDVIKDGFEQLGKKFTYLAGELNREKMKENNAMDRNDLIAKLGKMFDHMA
B9: putA N641A (Bradyrhizobium diazoefficiens, UniProt Q89E26); chain MPNIPPPFTAPYAPDDAEIAARLLPASHLSPPQEARIHRTATRLIEAIRKRDDRLGGVEDMLREFALSTKEGLALMVLAEALLRVPDARTADQFIEDKLGEGDFIHHETKSTAFLVNASAWALGLSARVIQPGETPDGTIGRLVKRLGAPAVRTATRQAMRLMGNHFVLGETIEQALERGKPRSGQKTRYSFDMLGEGARTAADARRYFDAYASAIETIGKAAGNHALPDRPGISVKLSALHPRFEAISRARVMVELVPQLLDLAQRAKAHDLNFTVDAEEADRLELSLDVIAATLADPSLKGWDGFGLAIQAYQKRASAVIDYVDALARAHDRKLMVRLVKGAYWDTEIKRAQERGLDGYPVFTRKAMTDLNYVACASKLLALRPRIFPQFATHNALTVATVLEMAEGSSGFEFQRLHGMGEALYEQLAKDHADIAYRTYAPVGSHRDLLAYLVRRLLENGANSSFVAQAADYRVPVPALLQRPADAIVRPQAAAHPRIPLPCDLFAPERRNSRGVEFGARTALDQLLTDVKAETGDLKPIADATPDQAHAAVAAARAGFAGWSRTPAGIRAAALEQAAHLLESRSAHFIALLQREGGKTLDDALSELREAADFCRYYAAQGRKLFGSETAMPGPTGESAALTMRGRGVFVAISPWNFPLAIFLGQVTAALMAGNSVVAKPAEQTPRIAREAVALLHEAGIPKSALYLVTGDGRIGAALTAHPDIAGVVFTGSTEVARSINRALAAKDGPIVPLIAETGGINAMIADATALPEQVADDVVTSAFRSAGQRCSALRLLFVQEDVADRMIEMVAGAARELKIGDPSDVATHVGPVIDVEAKQRLDAHIARMKTEARLHFAGPAPEGCFVAPHIFELTEAGQLTEEVFGPILHVVRYRPENLERVLRAIERTGYGLTLGVHSRIDDSIEAIIDRVQVGNIYVNRNMIGAVVGVQPFGGNGLSGTGPKAGGPHYLARFATEQTVTINTAAAGGNAALLAGEE
B10: TylM1 H123A (Streptomyces fradiae, UniProt P95748); chain MAHSSATAGPQADYSGEIAELYDLVHQGKGKDYHREAADLAALVRRHSPKAASLLDVACGTGMHLRHLADSFGTVEGLELSADMLAIARRRNPDAVLHHGDMRDFSLGRRFSAVTCMFSSIGALAGQAELDAALERFAAHVLPDGVVVVEPWWFPENFTPGYVAAGTVEAGGTTVTRVSHSSREGEATRIEVHYLVAGPDRGITHHEESHRITLFTREQYERAFTAAGLSVEFMPGGPSGRGLFTGLPGAKGETR
B11: Pck1 A467G (Rattus norvegicus, UniProt P07379); chain MPPQLHNGLDFSAKVIQGSLDSLPQEVRKFVEGNAQLCQPEYIHICDGSEEEYGRLLAHMQEEGVIRKLKKYDNCWLALTDPRDVARIESKTVIITQEQRDTVPIPKSGQSQLGRWMSEEDFEKAFNARFPGCMKGRTMYVIPFSMGPLGSPLAKIGIELTDSPYVVASMRIMTRMGTSVLEALGDGEFIKCLHSVGCPLPLKKPLVNNWACNPELTLIAHLPDRREIISFGSGYGGNSLLGKKCFALRIASRLAKEEGWLAEHMLILGITNPEGKKKYLAAAFPSACGKTNLAMMNPTLPGWKVECVGDDIAWMKFDAQGNLRAINPENGFFGVAPGTSVKTNPNAIKTIQKNTIFTNVAETSDGGVYWEGIDEPLAPGVTITSWKNKEWRPQDEEPCAHPNSRFCTPASQCPIIDPAWESPEGVPIEGIIFGGRRPAGVPLVYEALSWQHGVFVGAAMRSEATAGAEHKGKVIMHDPFAMRPFFGYNFGKYLAHWLSMAHRPAAKLPKIFHVNWFRKDKNGKFLWPGFGENSRVLEWMFGRIEGEDSAKLTPIGYVPKEDALNLKGLGDVNVEELFGISKEFWEKEVEEIDKYLEDQVNADLPYEIERELRALKQRISQM
Sequence of UniProt Q8QZR1 (whole entry, looked up): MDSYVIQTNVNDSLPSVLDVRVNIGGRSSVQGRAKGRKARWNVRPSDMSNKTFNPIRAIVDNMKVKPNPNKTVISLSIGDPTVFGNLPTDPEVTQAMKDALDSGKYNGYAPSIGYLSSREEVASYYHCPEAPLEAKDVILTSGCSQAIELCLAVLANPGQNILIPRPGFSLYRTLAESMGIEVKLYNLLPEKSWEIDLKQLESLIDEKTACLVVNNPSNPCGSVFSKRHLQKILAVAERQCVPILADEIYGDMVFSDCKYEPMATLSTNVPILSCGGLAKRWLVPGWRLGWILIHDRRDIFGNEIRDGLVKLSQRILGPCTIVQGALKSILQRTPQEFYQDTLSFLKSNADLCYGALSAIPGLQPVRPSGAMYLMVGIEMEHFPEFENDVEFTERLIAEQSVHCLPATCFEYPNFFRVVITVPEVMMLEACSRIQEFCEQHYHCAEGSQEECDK
Sequence of UniProt P94679 (whole entry, looked up): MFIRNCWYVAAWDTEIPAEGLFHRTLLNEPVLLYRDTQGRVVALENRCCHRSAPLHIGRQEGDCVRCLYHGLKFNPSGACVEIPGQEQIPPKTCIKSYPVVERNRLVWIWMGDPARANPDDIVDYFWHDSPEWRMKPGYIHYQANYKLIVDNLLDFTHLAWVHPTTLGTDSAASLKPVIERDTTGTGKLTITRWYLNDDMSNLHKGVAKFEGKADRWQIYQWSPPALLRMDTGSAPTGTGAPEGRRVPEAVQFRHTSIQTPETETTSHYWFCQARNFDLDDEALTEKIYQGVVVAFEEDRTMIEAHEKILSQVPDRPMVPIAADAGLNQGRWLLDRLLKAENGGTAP
Sequence of UniProt P19337 (whole entry, looked up): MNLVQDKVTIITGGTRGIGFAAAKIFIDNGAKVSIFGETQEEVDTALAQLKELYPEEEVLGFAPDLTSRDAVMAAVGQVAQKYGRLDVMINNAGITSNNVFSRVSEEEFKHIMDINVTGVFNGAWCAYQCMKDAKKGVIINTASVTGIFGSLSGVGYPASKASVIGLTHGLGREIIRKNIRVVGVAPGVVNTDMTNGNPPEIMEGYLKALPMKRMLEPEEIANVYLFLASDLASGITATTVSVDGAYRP
Sequence of UniProt Q29437 (whole entry, looked up): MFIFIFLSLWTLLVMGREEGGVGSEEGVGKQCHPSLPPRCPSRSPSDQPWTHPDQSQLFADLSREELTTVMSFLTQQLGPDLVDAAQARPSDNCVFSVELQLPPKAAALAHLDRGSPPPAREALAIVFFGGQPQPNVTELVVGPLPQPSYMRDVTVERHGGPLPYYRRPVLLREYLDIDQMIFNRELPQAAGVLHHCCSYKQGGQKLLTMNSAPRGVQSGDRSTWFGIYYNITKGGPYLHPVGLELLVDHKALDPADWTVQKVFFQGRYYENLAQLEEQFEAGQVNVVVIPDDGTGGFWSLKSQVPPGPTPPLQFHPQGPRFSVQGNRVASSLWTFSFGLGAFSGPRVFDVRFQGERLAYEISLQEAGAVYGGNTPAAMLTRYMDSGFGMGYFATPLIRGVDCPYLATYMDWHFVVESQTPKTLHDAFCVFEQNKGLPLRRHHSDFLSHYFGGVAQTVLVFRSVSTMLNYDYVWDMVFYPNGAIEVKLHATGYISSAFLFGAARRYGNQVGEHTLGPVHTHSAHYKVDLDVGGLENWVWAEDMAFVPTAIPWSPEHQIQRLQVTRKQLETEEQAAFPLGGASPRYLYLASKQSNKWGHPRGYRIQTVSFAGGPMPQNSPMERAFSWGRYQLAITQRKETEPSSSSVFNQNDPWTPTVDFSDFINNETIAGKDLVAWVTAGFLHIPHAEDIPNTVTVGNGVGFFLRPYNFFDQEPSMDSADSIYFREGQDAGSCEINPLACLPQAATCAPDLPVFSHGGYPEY

B1 (sacB Y421F)
kcat/Km (OC[C@H]1O[C@@](CO)(O[C@H]2O[C@H](CO)[C@@H](O)[C@H](O)[C@H]2O)[C@@H](O)[C@@H]1O; pH 6.6): 550 M⁻¹ s⁻¹

B2 (enzyme)
kcat/Km (O=C(O)Cc1cccc2ccccc12; pH 8.6, 25 °C): 454 M⁻¹ s⁻¹

enzyme (Thermobifida fusca, UniProt Q47RK4)
kcat/Km (CC(C)(COP(=O)(O)OP(=O)(O)OC[C@H]1O[C@@H](n2cnc3c(N)ncnc32)[C@H](O)[C@@H]1OP(=O)(O)O)[C@@H](O)C(=O)NCCC(=O)NCCSC(=O)CCCC(=O)O; pH 7.4, 37 °C): 1.5 M⁻¹ s⁻¹

B3 (protein Y93T)
kcat/Km (Nc1ccn([C@@H]2O[C@H](CO)[C@@H](O)[C@H]2O)c(=O)n1; pH 7.2, 25 °C, KCl 100 mM, added: ATP 100–200 µM): 5300 M⁻¹ s⁻¹

B4 (oxdC T165S)
kcat/Km (O=C(O)C(=O)O; pH 4.2, 25 °C): 3170 M⁻¹ s⁻¹

Tat (Mus musculus, UniProt Q8QZR1)
kcat/Km (O=C(O)CCC(=O)C(=O)O; pH 7, 38 °C, added: PLP): 14200 M⁻¹ s⁻¹

BaiA2 (Clostridium scindens, UniProt P19337)
kcat/Km (NC(=O)c1ccc[n+]([C@@H]2O[C@H](COP(=O)(O)OP(=O)(O)OC[C@H]3O[C@@H](n4cnc5c(N)ncnc54)[C@H](OP(=O)(O)O)[C@@H]3O)[C@@H](O)[C@H]2O)c1; pH 8.7, 37 °C, cofactor varied, added: glycocholic acid 1.4 mM): 300 M⁻¹ s⁻¹

alanine aminopeptidase (Neisseria meningitidis, UniProt Q9JYV4)
kcat/Km (NC(=O)Cc1cc(=O)oc2cc(NC(=O)[C@@H](N)CC(=O)OCc3ccccc3)ccc12; pH 7.5, 37 °C): 31000 ± 1000 M⁻¹ s⁻¹

B5 (protein G96D)
kcat/Km (O[C@H]1CCCc2ccccc21; pH 7.4, phosphate 400 mM, NADPH 250 µM printed, added: NADP+, reverse reaction): 1 ± 0.2 M⁻¹ s⁻¹

B6 (protein)
kcat/Km (O=C(/C=C/c1ccc(O)cc1)c1c(O)cc(O)cc1O): 1.7e+06 M⁻¹ s⁻¹

tsaM1 (Comamonas testosteroni, UniProt P94679)
kcat/Km (COc1cc(C(=O)O)ccc1O; apparent, added: NADH 1 mM): 230 ± 48 M⁻¹ s⁻¹

B7 (enzyme A178R/D177A/M179H/P184R)
kcat/Km (NC(=O)C1=CN([C@@H]2O[C@H](COP(=O)(O)OP(=O)(O)OC[C@H]3O[C@@H](n4cnc5c(N)ncnc54)[C@H](OP(=O)(O)O)[C@@H]3O)[C@@H](O)[C@H]2O)C=CC1; pH 7.5, 37 °C, per site): 8.2e+06 ± 1.6e+06 M⁻¹ s⁻¹

Plasma amine oxidase (Bos taurus, UniProt Q29437)
kcat/Km (NCCOc1ccc2cc(CN)ccc2c1; pH 7.2, 30 °C): 200000 M⁻¹ s⁻¹

B8 (hdhb)
kcat/Km (NC(=O)c1ccc[n+]([C@@H]2O[C@H](COP(=O)(O)OP(=O)(O)OC[C@H]3O[C@@H](n4cnc5c(N)ncnc54)[C@H](OP(=O)(O)O)[C@@H]3O)[C@@H](O)[C@H]2O)c1; pH 8, 25 °C, cofactor varied): 72600 M⁻¹ s⁻¹

B9 (putA N641A)
kcat/Km (O=C(O)[C@@H]1CCCN1; pH 8, 23 °C): 29 ± 15 M⁻¹ s⁻¹

B10 (TylM1 H123A)
kcat/Km (Cc1cn([C@H]2C[C@H](O)[C@@H](COP(=O)(O)OP(=O)(O)O[C@H]3O[C@H](C)[C@@H](O)[C@H](N)[C@H]3O)O2)c(=O)[nH]c1=O; 25 °C, added: SAM): 69 ± 5 M⁻¹ s⁻¹

B11 (Pck1 A467G)
kcat/Km (Nc1nc2c(ncn2[C@@H]2O[C@H](COP(=O)(O)OP(=O)(O)O)[C@@H](O)[C@H]2O)c(=O)[nH]1; pH 7.5, 25 °C): 14000 M⁻¹ s⁻¹

protein (Sinorhizobium meliloti, UniProt Q92LZ4)
kcat/Km (O=C(O)C(=O)CO; pH 7.5, 25 °C, NaCl 150 mM, added: NADPH 0.4 mM): 9310 ± 380 M⁻¹ s⁻¹
